Assay results of several laboratories.
Parts stem from different laboratories: compare values within a part only.

Set 1
Target: Interferon regulatory factor 3, full length, phosphomimetic (IRF3, Homo sapiens, UniProt Q14653, residues 1-427, S386D/S396D/S398D/S402D/T404D/S405D)
Technique: protein-binding microarray
Molecule type: double-stranded DNA, one strand shown
Sample: in vitro
Tested at: 2540 nM top
Notes: 60-bp whole probe
Together with: salmon DNA 0.4 mg/ml
Baseline: random background probes
Direction: higher = stronger binding
Measurement: fitted relative affinity
Constant ends, left off below: GCCTAGCAC … GTCTTGATTCGCTTGACGCTGCTG
Construct (chain): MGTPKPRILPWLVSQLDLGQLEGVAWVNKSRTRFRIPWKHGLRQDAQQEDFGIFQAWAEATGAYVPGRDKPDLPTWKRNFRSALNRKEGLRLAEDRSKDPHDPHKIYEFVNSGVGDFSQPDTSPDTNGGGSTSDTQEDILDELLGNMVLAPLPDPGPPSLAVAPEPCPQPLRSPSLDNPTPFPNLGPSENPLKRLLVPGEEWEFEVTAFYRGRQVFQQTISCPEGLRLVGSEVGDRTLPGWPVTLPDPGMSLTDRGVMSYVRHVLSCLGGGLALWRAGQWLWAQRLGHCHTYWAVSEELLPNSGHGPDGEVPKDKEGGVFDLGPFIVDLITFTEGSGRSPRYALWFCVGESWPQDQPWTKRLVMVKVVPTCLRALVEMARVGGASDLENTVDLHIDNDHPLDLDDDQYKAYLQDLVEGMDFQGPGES
GAAGAACTGGGGTTTCGAGACGTGCTA: 0.0531 z-score
TCATTTTTCTACTTCTCACTGTGCTAG: 2.47 z-score
TTAGATATCGGGACTGAATTAGTGCTA: 0.197 z-score
GACGATATCAGTTTCGAGGCGTGCTAG: 2.97 z-score
GACGATATCGAGTTTCGAGACGTGCTA: 1.31 z-score
GACGATATCCGGACTGGAGACGTGCTA: 0.809 z-score
TAGTTTTTACTTTCTGAATGGTGCTAG: 3.83 z-score
TTGTCTCTGTCCCTGTTTCTGTGCTAG: 0.656 z-score
TTAGGTCTCGGACTGGGTCAGTGCTAG: -0.306 z-score
GACGGTTTCGGTCTCAGGACGTGCTAG: 8.21 z-score
GAGCCCGGGGTGTAAGCAACGTGCTAG: -1.34 z-score
TTAGGTTTCCTTTCCCTTAAGTGCTAG: 10.4 z-score
TAAGGTATCGGTCTCGGTTAGTGCTAG: 4.53 z-score
TCATATGTATATATGTGACTGTGCTAG: 0.409 z-score
TTTGGTATCGGACTGGGTTAGTGCTAG: 1.6 z-score
AACGGTTTCGGGACTGGGGACGTGCTA: 4.49 z-score
TCACGTCTCTATCAAAAACTGTGCTAG: 0.124 z-score

Set 2
Target: Protein C-ets-1 (ETS1, Homo sapiens, UniProt P14921, residues 1-441, K379A, full length assumed)
Technique: protein-binding microarray
Molecule type: double-stranded DNA, one strand shown
Sample: in vitro
Tested at: not given
Notes: k-mer, scored over probes, only values ≥0.25
Direction: higher = stronger binding
Measurement: E-score
Construct (chain): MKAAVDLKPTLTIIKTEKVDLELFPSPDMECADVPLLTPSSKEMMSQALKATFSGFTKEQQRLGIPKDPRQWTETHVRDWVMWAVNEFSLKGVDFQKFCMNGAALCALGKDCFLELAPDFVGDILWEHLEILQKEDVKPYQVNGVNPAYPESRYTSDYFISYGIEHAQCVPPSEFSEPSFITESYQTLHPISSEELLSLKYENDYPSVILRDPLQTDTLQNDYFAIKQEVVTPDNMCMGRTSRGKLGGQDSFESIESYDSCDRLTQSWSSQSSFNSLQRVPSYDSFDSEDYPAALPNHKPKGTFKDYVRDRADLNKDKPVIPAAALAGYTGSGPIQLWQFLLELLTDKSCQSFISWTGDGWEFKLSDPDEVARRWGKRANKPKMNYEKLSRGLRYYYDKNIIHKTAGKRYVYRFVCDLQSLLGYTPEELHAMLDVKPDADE
ATATACTA: 0.295
CCGGTGTC: 0.46
ATCACACC: 0.263
AGGTTGTA: 0.26
GGAAACAC: 0.282
ATACATCG: 0.299
ACCGGCGT: 0.304
ATGCGGAA: 0.262
ACCGGTTG: 0.42
CTATACAG: 0.255
ATGCATTA: 0.257
CCGGAGAC: 0.314
ATGTTAAC: 0.269
CCGGATTC: 0.277
AGGAGGGG: 0.315
CGGCGGAG: 0.286

Set 3
Target: Centromere-binding protein 1, full length, N-terminal tag (CBF1, Saccharomyces cerevisiae, UniProt P17106, residues 1-351)
UniProt P17106, sequence (whole entry, looked up): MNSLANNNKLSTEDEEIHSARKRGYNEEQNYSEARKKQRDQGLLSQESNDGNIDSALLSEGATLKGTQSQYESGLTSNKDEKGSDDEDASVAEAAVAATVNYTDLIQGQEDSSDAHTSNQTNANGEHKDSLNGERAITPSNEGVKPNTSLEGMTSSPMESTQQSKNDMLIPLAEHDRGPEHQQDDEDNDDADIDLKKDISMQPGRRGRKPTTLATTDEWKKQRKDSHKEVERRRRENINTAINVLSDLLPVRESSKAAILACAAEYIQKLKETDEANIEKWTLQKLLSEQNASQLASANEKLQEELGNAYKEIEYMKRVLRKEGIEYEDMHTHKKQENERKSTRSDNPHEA
Technique: protein-binding microarray
Molecule type: double-stranded DNA, one strand shown
Sample: in vitro
Tested at: 0.8 µM
Notes: whole 60-bp probe, no competitor
Direction: higher = stronger binding
Measurement: fluorescence intensity
Constant ends, left off below: … GTCTTGATTCGCTTGACGCTGCTG
CTATGCATACTTCATCTGACCAATATATTTTCATTC: 601 a.u.
CTATGGGATAACCGTCACGTGACTCTCACTAGGTTC: 47300 a.u.
GAATAGTTGAAATAGCGCACGAAAACGAACAGATAG: 565 a.u.
CCTAACTACTATAGAAACGTGACATAGCTTCGTACA: 2060 a.u.
GAAAACAAACGGCATTCGGTCACGTACGATAACTAG: 768 a.u.
CTATCTATAGCTGCACACCTGATTTTTTTGCTATTC: 800 a.u.
CCTAACTACTATAATCACGAAGAATAGCTTCGTACA: 517 a.u.
GAATTAAATAACACACACGTTATCTCTAGCGGTTAG: 643 a.u.
GAAAATAGCGAGAATATGGTGTGAACAGTAGCATAG: 504 a.u.
GAACGGTAATTATGTCACGGCTAAAATTTTCATTAG: 709 a.u.
CTAGTGCCGCTTACTCGTGAGAATATCAACCTTTTC: 563 a.u.
GAAAGCCATGTTTGGCACGTTCCCTGCTTGAACTAG: 607 a.u.

Set 4
Target: Histone acetyltransferase KAT6A, both winged helices, GST fusion (KAT6A, Homo sapiens, UniProt Q92794, residues 1-181)
Technique: protein binding microarray
Molecule type: double-stranded DNA, one strand shown
Sample: in vitro
Tested at: not given
Notes: 8-mer, flanks averaged, mean of 2 arrays, mostly near background
Baseline: not given
Direction: higher = stronger binding
Measurement: E-score
Target sequence (chain): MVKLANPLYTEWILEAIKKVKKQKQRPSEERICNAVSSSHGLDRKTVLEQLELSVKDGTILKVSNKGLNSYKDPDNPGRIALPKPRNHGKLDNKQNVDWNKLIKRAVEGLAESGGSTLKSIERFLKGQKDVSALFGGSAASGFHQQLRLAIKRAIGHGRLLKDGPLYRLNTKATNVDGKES
ACGCAAAG: -0.0295
ATTAAAAA: -0.0216
AACGCCTG: -0.094
AACTTAAT: -0.121
AATACGGG: 0.14
CTTAAAAA: -0.172
GCTGACGA: -0.054
AGCATTGG: -0.09
CCGCCATC: 0.0911
CGTGTCGC: 0.245
GTAATGTA: 0.0913
GCATAGAC: 0.0779
CACACGAA: 0.0151
ACCGCGCT: 0.31
GCTAGGAA: -0.0847
ACTCATGG: -0.0716
CCCGCCCC: 0.25
CCGCTGCC: 0.142
ATAGCCTC: -0.00752
CGCTACAC: 0.135
GGCTATAA: 0.0193
GTCAGGTA: 0.037

Set 5
Target: RNA binding protein fox-1 homolog 2, RRM domain, GST-SBP tag (RBFOX2, Homo sapiens, UniProt O43251-10, residues 100-194)
Technique: RNA Bind-n-Seq
Molecule type: RNA
Sample: in vitro
Tested at: 365 nM
Notes: natural RNA segment, single round, ends assumed
Baseline: no-protein control
Direction: higher = stronger binding
Measurement: RBNS enrichment (R)
Constant ends, left off below: GGGAGUUCUACAGUCCGACGAUC … UGGAAUUCUCGGGUGCCAA
Target sequence (chain): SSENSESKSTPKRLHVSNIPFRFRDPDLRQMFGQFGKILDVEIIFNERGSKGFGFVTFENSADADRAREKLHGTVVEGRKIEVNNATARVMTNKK
AACUGCAGAGGGGGCUCCUUGAGUUCUGUCUGCACAAGAAACUGCACUGCAAGUUUUGAAGGAGUCAGUAGCCAUUAAACCUAAAUUUAAUUUAUUUUAUUAAAAUAACA: 0.539
GCAAAGCCUGGGACAUUUGCAAUAGCAAGCACCCUCUGUAGUCUCCUGCAGAGCCAUAGCUUCAAUGUUCUAAGAUCACUGUGACUGGUCAGGAGGACAGGACGCUGCUU: 0.442
UCCUGGGGCCCAUGCUUAGAGCCCAGGCUCCAGCCCUGAGUGCUUCCGAGCUGGCGGACUGCCCAGGGGCCAUCAGAGGAUGGUGGUGCUGCUGCUGAUCCGGGGACCGC: 0.546
UGUGUGUGCACGCGUUCGCACAUGCGUGAGUGUGUAGCAGAAGUGUGUACAGAGAGGCCCGUGCUAGCUAGCACCAAGUUGGUUGACAGAUUGUUUUGUGAUGCUUGCCC: 0.696
GGUUUUGCUUUUAGUCUCCCCUUCCUUCUGCCUUGGGGGCGGUACUCUGUGGAGCUGCUUAGGCCUGGAAAGGUACAGUAUGUAGAAGAGGACUGUGAGACGUGAGUUAG: 0.362
GUGUGUAACCCUGGGUAGGCCACUCCAUCUCCUAGGUGUGUAACCCUGGACAGGACAUUUCACCUGCUAGUCUGUGCUAUUCUGGUAAAAUGAAGGGAUGCAUUGGACUA: 0.438
UGUACUAUAGGAGUGAUAAUUGCAGCUAUUGCAAUAGUAGUAAUUGUUAAAUGGAUACUAAUGAAUAGCAUAGCAUAGUGGGUAAGAGUUUAUAUAGCACAGGCUCUAGA: 0.817
GGGAAUGGAAUACAGAGCCCAAGCAAUGAGGAGCAGGCAAAGCCAGCCUCCCAGCAGGACAACAAAUGGAGGUCCAUCUAUCUUUGUCACCAAGCUGAGGUGUCUGAAGC: 0.462
CUCCGGGGCCCCUUCCUGACUCUCCCCACCUUCGCCACUUGUCUCUAGGCUAUGGGACAAUCAUCCCAUUCACCACUUGACAUCCUUGACAUCCUUGACUUUCAUUCCCC: 0.222
GGCUUCUUCUUUGCCUGUUCCAAAAGCCAGGGCCCUGGGCCUGCUCUUCAUCUUGCGGGCCUCCUAGGACCCAGCCUUCCAAAGUCCUGGCUGACAGAUGCUGCUCUUGG: 0.355
ACAUUUUAGGGGCAUGGUUAAUACCUGAGAUUUUUACUCAGUAAAUCCUGAUGGUUACUGUGUGUAAAAUAUCUUUAAGUAGGAUUGAAGGCCUCUGUGGGGGAAUAAAA: 0.593
CUUUAAAAAAAUUUUCUGCAUAGGUUAUAUCCCAGACCACUUAAAUCAGAAUAUCUUGGAUGGAACCCAGACAUCAGAUUAUUGUAUUUUCCCCCAUAAUUUAAAGUUCA: 0.775

Some of these lines once more (set 4):
GTAATGTA: 0.0913
GCATAGAC: 0.0779
CACACGAA: 0.0151
ACCGCGCT: 0.31
GCTAGGAA: -0.0847
ACTCATGG: -0.0716
CCCGCCCC: 0.25
CCGCTGCC: 0.142
